Literature values as cited in several papers.
Compare with care: the assays were run in different laboratories. ± gives the spread as reported.

Compound	cell line	read-out	method	CC50
C=C(CC)C(=O)c1ccc(OCC(=O)Nc2cccc3cn(C)nc23)c(Cl)c1Cl	Vero E6	–	–	≥ 100 µM
CCC(C)C(=O)c1c(O)c(CCC(C)C)c(O)c2c1OC(=O)CC2c1ccccc1 (stereo not drawn)	macrophages	–	–	85.4 µM
Cc1cc(N2CCC(CO)(C3CC3)C2=O)cc(C(=O)NCc2cc(F)cc(-c3cnn(C)c3)c2)n1 (stereo not drawn)	MDA-MB-231	cytotoxicity	–	3.6 µM
Cc1cc(-c2ccc(C#N)cc2)cc(C)c1Nc1ccnc(Nc2ccc(C#N)cc2)n1	MT-4	–	–	2.08 µM
O=C(NCc1ccc(F)cc1F)c1cn2ccn(CCCCCCO)c(=O)c2c(O)c1=O	HOS	ATP level	50% ATP reduction	> 250 µM
C=C(CC)C(=O)c1ccc(OCC(=O)Nc2ccc3c(cnn3C)c2)c(Cl)c1Cl	Vero E6	–	–	≥ 50 µM
Cc1cc(N2CC[C@](C#N)(C3(C)CC3)C2=O)cc(C(=O)NCc2cc(F)cc(-c3cnn(C)c3)c2)n1	ARPE-19	–	–	> 2 µM
COCCCN1CCn2cc(C(=O)NCc3ccc(F)cc3F)c(=O)c(O)c2C1=O	HOS	ATP level	50% ATP reduction	211 ± 3 µM
Cc1cn(C2C=CC(COP(=O)(O)OP(=O)(O)OP(=O)(O)O)O2)c(=O)[nH]c1=O (stereo not drawn)	CEM/0	cell proliferation	–	> 100 µM
Cn1ccn2cc(C(=O)NCc3ccc(F)cc3F)c(=O)c(O)c2c1=O	HOS	ATP level	50% ATP reduction	121 ± 2.7 µM
Cc1cc(N2CC[C@@](C#N)(C3CC3)C2=O)cc(NC(=O)Cc2ccccc2)n1	MDA-MB-231	cytotoxicity	–	0.382 µM
CC(C)n1ccn2cc(C(=O)NCc3ccc(F)cc3F)c(=O)c(O)c2c1=O	HOS	ATP level	50% ATP reduction	> 250 µM
O=C(CCC(CCC(=O)N[C@@H](Cc1ccc(O)cc1)C(=O)O)(CCC(=O)N[C@@H](Cc1ccc(O)cc1)C(=O)O)NC(=O)CCOCC(COCCC(=O)NC(CCC(=O)N[C@@H](Cc1ccc(O)cc1)C(=O)O)(CCC(=O)N[C@@H](Cc1ccc(O)cc1)C(=O)O)CCC(=O)N[C@@H](Cc1ccc(O)cc1)C(=O)O)(COCCC(=O)NC(CCC(=O)N[C@@H](Cc1ccc(O)cc1)C(=O)O)(CCC(=O)N[C@@H](Cc1ccc(O)cc1)C(=O)O)CCC(=O)N[C@@H](Cc1ccc(O)cc1)C(=O)O)COCCC(=O)NC(CCC(=O)N[C@@H](Cc1ccc(O)cc1)C(=O)O)(CCC(=O)N[C@@H](Cc1ccc(O)cc1)C(=O)O)CCC(=O)N[C@@H](Cc1ccc(O)cc1)C(=O)O)N[C@@H](Cc1ccc(O)cc1)C(=O)O	MT-4	cell proliferation	–	> 100 µM
COCCCCCCn1ccn2cc(C(=O)NCc3ccc(F)cc3F)c(=O)c(O)c2c1=O	HOS	ATP level	50% ATP reduction	> 250 µM
COc1ccc(C(=O)Nc2cc(OC)c(OC)c(OC)c2)cc1NC(=O)C(C)Br (stereo not drawn)	Huh7.5	–	–	11.8 ± 2.87 µM

A few entries again:
Compound	cell line	read-out	method	CC50
Cc1cc(-c2ccc(C#N)cc2)cc(C)c1Nc1ccnc(Nc2ccc(C#N)cc2)n1	MT-4	–	–	2.08 µM
Cc1cc(N2CC[C@@](C#N)(C3CC3)C2=O)cc(NC(=O)Cc2ccccc2)n1	MDA-MB-231	cytotoxicity	–	0.382 µM
